Measurements of several laboratories.
Numbered parts are unrelated; each lists some results of a single study.

Block 1 — method: RNA Bind-n-Seq; molecule type: RNA; matrix: in vitro; concentration: 200 nM; notes: whole 134-nt RNA, ends assumed; added: 150 mM LiCl; reference: input library; reading: higher = stronger binding; library: 7-deaza-guanosine replaces G
Target: Ras GTPase-activating protein-binding protein 1, full length (G3BP1, Homo sapiens, UniProt Q13283)
UniProt Q13283, sequence (whole entry, looked up): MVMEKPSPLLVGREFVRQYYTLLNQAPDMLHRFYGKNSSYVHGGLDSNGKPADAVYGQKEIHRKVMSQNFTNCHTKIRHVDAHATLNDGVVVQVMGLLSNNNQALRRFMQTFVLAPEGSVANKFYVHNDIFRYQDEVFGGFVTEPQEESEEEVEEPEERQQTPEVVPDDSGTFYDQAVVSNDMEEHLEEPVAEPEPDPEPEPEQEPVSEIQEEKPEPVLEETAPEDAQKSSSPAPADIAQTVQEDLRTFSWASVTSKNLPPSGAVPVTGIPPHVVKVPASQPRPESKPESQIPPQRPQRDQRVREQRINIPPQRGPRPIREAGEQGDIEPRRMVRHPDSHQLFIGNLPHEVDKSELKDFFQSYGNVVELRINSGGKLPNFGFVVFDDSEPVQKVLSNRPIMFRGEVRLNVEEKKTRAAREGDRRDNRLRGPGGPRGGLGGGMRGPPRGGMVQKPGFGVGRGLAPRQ
Constant ends, left off below: GGGAGUUCUACAGUCCGACGAUC … UGGAAUUCUCGGGUGUCAAGG
Sequence | log2 enrichment
CACAGACAACACGCACCCACACAGACACAGAGGGAAGGGGUUGAAAUGGGGACAGGGUGCACAGCAGGGCGGGGUAGGACCCCAGCCCCU | -1.32
UUUGGAGAAGGAACCCCACUCUCCAGCUGACCAGCCUGAACAACAGGCAGAAUCCACUUUGACAUCAGCUGAGACUAGGGGAAGCAAGAA | -0.126
CUCAAGUCCUGUGCUACACAUCGUAUGUACCGAAUCGGAAGGGAAGGGGAAGGAAAGUAUUAUGUUACGCCGUUCGGAUCUGCACUUCCA | -0.168
CUGUGCUACACAUCGUAUGUACCGAAUCGGGUUUUUUUGGUUUUUUUGGGGUUUUUUUGGGAAAGUAUUAUGUUACGCCGUUCGGAUCUG | 1.02
CAAGUCCUGUGCUACACAUCGUAUGUACCGAAUCGGGGUUUGGGGUUUGGUUUGGGAAAGUAUUAUGUUACGCCGUUCGGAUCUGCACUU | -0.871
UGGCCCUGGUGGCAUGCGGGGAGGAAGAGGUGGCCUCAUGGAUCGUGGGGGUCCCGGUGGAAUGUUCAGAGGUGGCCGUGGUGGAGACAG | 0.429
ACCAGGCAGGUGGGCAUCUUUGGGAAGUGGGGCAAGGGGGGGAUAGGGAGGGGGGUAACACUUUGGGAACAGGUGGUCCCAGGUCGUUUC | 0.318
UGGGAGGUGGAUUUUGUUUAUUUUUUUAGCUCCUUUCCAGGGGUGGGAAUUUUUUUUUAAUAUGUGUCAUGAAUAAAGUUGUUUUUGAAA | 0.146
CUCAAGUCCUGUGCUACACAUCGUAUGUACCGAAUCGGCCGGGCCGGGCCGGGAAAGUAUUAUGUUACGCCGUUCGGAUCUGCACUUCCA | 0.186
UUGGAGGUGGAUUUUGUUUAUUUUUUUAGCUCAUUUCCAGGGGUGGGAAUUUUUUUUUAAUAUGUGUCAUGAAUAAAGUUGUUUUUGAAA | -0.508
GUCCUGUGCUACACAUCGUAUGUACCGAAUCAAACCCAAACCCCCAAACCCCCCCAAAAAAGUAUUAUGUUACGCCGUUCGGAUCUGCAC | -0.0398

Block 2 — method: RNA Bind-n-Seq; molecule type: RNA; matrix: in vitro; concentration: 365 nM; reference: no-protein control; reading: higher = stronger binding
Target: RNA binding protein fox-1 homolog 2, RRM domain, GST-SBP tag (RBFOX2, Homo sapiens, UniProt O43251-10, residues 100-194)
Notes: natural RNA segment, single round, ends assumed
Constant ends, left off below: GGGAGUUCUACAGUCCGACGAUC … UGGAAUUCUCGGGUGCCAA
Construct (chain): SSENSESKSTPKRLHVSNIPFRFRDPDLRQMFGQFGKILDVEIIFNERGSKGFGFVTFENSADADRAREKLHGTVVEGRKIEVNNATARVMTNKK
Sequence | RBNS enrichment (R)
CGAGCUUGUUUUAAAGCAGAGACUGAAUAGAAAGUUGUAUGUUUUAGCAUAAACUAAUUCCUUUUGAGUUUGUAAAUCAUUUGUACCCAGAAUGUAUUAUAAUAUAUUGC | 2.01
GAAAGAGAGGCCUUAGGAUUCUCCUCUCUCUAGGUGCUGAGCCCUCACCUCCCUGUUCCAGGCUGAGAACUCAAAUGGUUACCCUGCUUCUUCCUACAAUGCUGUGUGAU | 0.674
UGCUGGUAGCAUGCUGCAGCUUCUGUGUUAAAGGUCCUCUGGAGCUCGUGUAAGACAGGAAGAACACUUUCUCUGUAGUUUCUUUCUUUUCAUUUAUAAUUUACAAAAGU | 44.4
GUGGUCUCCACAGCCACCAUCAUACACUCAUCCCGUGUUUUCUUCCAAAAAGUCACCUCAGCAGCCUCCCCAGGCGAUACAGAGGGAGAGCCCAGACCACCACAGCUGGC | 0.525
CCUGGAACUUGGAAGAGCAGCAGAUGAAGUUGGAAAGAAAAUUCUGCUCUUAUCACCUAAACAGGACAGGAGAGCAGAUGCCCCAGCGCCUCUAGUAGAUGGUAGUGGUG | 0.325
GGUACCAAAGCACUGAGUCUAAUUUACCUAUUAAGGGAGACUCUUUAAAAUCAACUUUAUAACUAAUUCAUACUAUAAGACAGAUAAUAGCUAAAGUUUUGGAAUAAUUU | 0.463
GUGAUGCAAAUUGUGUGCCCUCUGGUUCAGCUGAAACAGUCCUGGACUUUCAAAAACCUUGAAUAAGUCUCCCACAGUUGUAUAAAUUGGACAAUUUAGGAAUUUUAAAC | 0.645

Block 3 — method: universal PBM; molecule type: double-stranded DNA, one strand shown; matrix: in vitro; concentration: 600 nM; reading: higher = stronger binding
Target: Sal-like protein 4, full length isoform A (SALL4, Homo sapiens, UniProt Q9UJQ4, residues 1-1053)
UniProt Q9UJQ4, sequence (whole entry, looked up): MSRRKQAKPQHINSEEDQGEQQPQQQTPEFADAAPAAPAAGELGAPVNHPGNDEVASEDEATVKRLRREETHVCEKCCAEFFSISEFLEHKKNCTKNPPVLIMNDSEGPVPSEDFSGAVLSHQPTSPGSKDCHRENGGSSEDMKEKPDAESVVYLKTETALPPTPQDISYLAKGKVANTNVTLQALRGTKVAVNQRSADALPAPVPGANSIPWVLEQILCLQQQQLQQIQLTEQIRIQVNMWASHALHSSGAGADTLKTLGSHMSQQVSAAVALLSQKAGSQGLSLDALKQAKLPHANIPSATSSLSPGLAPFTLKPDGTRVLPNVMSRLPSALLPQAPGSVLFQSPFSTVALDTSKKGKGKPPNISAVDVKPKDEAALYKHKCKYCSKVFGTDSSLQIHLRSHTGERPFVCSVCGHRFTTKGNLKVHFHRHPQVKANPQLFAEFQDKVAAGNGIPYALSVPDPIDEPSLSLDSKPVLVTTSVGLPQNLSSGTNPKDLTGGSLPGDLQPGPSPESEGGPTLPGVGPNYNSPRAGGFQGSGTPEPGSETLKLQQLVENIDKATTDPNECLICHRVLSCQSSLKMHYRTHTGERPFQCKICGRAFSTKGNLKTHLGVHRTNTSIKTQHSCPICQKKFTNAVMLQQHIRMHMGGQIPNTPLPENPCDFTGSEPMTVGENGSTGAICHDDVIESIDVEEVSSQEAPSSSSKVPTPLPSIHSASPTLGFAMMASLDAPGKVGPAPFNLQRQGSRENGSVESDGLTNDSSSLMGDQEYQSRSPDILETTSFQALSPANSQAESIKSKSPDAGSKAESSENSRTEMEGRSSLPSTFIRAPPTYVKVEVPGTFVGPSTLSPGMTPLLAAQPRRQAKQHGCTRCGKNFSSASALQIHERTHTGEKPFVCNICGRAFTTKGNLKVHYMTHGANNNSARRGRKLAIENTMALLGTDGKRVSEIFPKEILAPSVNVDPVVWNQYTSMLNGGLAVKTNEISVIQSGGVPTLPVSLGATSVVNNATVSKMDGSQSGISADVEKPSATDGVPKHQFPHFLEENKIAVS
Notes: 8-mer, flanks averaged, mean of replicates
Sequence | E-score
GCGACACA | -0.0976
AAGAGCCG | -0.287
GATTCTCC | -0.194
ATCGGCGA | -0.254
CTCGAAAG | -0.0953
GGTTCCAA | -0.129
GGACTCTA | -0.102
TTAGATAA | 0.235
CGTTATAC | 0.148
CAAGTTGA | 0.00237
GGTCCTGA | -0.261
CCAGTAGA | -0.0391
GAGTTCGA | 0.00365
CAAGAAAG | 0.0371

Block 4 — method: aptamer microarray, sandwich; molecule type: DNA with 2'F-ANA; matrix: in vitro; concentration: 200 nM; added: Cy3 exosite-II aptamer, 400 nM; reading: higher = stronger binding; sequence: GGTTGGTGTGGTTGG
Target: Prothrombin, mature alpha-thrombin (F2, Homo sapiens, UniProt P00734)
Notes: whole 15-mer aptamer, many near background
Modification | mean fluorescence intensity
2'F-ANA at 3 7 13 14 | 785 a.u.
2'F-ANA at 1 5 8 9 13 14 15 | 60.5 a.u.
2'F-ANA at 1 2 7 9 10 11 12 13 | 58.7 a.u.
2'F-ANA at 1 2 4 5 6 8 11 12 13 | 77.6 a.u.
2'F-ANA at 1 4 6 7 8 11 13 15 | 89 a.u.
2'F-ANA at 1 2 4 5 6 7 8 9 10 11 12 14 15 | 50.6 a.u.
2'F-ANA at 2 3 4 5 6 7 10 12 13 14 | 46.6 a.u.
2'F-ANA at 4 7 8 10 13 14 | 60.9 a.u.
2'F-ANA at 1 4 9 10 13 | 47.8 a.u.
2'F-ANA at 2 3 5 13 | 86.2 a.u.
2'F-ANA at 1 2 4 7 9 12 13 15 | 172 a.u.
2'F-ANA at 1 2 3 5 6 12 14 15 | 131 a.u.
2'F-ANA at 2 5 7 8 9 10 11 12 13 | 50.5 a.u.
2'F-ANA at 2 3 4 5 6 11 14 | 52.7 a.u.
2'F-ANA at 1 2 3 6 10 12 13 | 85.5 a.u.
2'F-ANA at 2 5 9 10 14 15 | 47.2 a.u.
2'F-ANA at 1 2 3 8 15 | 295 a.u.
2'F-ANA at 1 3 5 7 9 10 12 13 14 | 46.7 a.u.
2'F-ANA at 1 2 9 10 11 15 | 67.9 a.u.
2'F-ANA at 2 5 6 7 8 9 10 12 15 | 53.3 a.u.

Block 5 — method: protein-binding microarray; molecule type: double-stranded DNA, one strand shown; matrix: in vitro; concentration: 940 nM top; notes: 60-bp whole probe; added: salmon DNA 0.4 mg/ml; reference: random background probes; reading: higher = stronger binding; constant ends, left off below: GCCTAGCAC … GTCTTGATTCGCTTGACGCTGCTG
Target: Interferon regulatory factor 5, full length, phosphomimetic (IRF5, Homo sapiens, UniProt Q13568-2, residues 1-514, S451D/S453D/S456D/S462D)
Sequence | fitted relative affinity [z-score]
GACGGTATCGGGACTGGGGATGTGCTA | 3.1
TTAGATATCAGTCCCGATTAGTGCTAG | 0.26
CTTTCTTTCCATACTGCAAGGTGCTAG | 1.83
TCAACTTCTGTTTTTGCACTGTGCTAG | 0.493
TCACCTCCCTGTTTCCAACTGTGCTAG | 0.801
TTAGAACTGGGGAATGGATTAGTGCTA | 0.233
GACGATTTCAAACTGGAGACGTGCTAG | 0.0169
GACGGACTGAACTTTCGGGACGTGCTA | -0.124
GACGGTTTCCCTTTCCTGACGTGCTAG | 2.66
CACGAACTGGGGACTGGAGACGTGCTA | 0.0144
GACGGTATCGGGACTCGGGACGTGCTA | 3.13
TCACATTTTCGTTTTTAACTGTGCTAG | 2.16
TTAGGACTACTTATCCTTTAGTGCTAG | -0.357

A few entries again (block 3):
Sequence | E-score
AAGAGCCG | -0.287
CTCGAAAG | -0.0953
TTAGATAA | 0.235
GAGTTCGA | 0.00365
GGTCCTGA | -0.261
